{"data": "Assay results gathered from unrelated publications", "note": "Each numbered part is a random draw from the data of one study; scales do not carry over between parts."}
{"data": "Study 1", "organism": "SARS-CoV-2", "observed": "cytopathic effect", "cells": "Vero E6", "concentration": "10 µM"}
{"Structure (SMILES)": "CC1=C(CC(=O)O)c2cc(F)ccc2/C1=C\\c1ccc([S+](C)[O-])cc1 (centres unmarked)", "inhibition [%]": 4.2}
{"Structure (SMILES)": "CN(C)C(=S)SSC(=S)N(C)C", "inhibition [%]": -14.7}
{"Structure (SMILES)": "O=C1/C(=C/c2ccc([N+](=O)[O-])cc2)CS(=O)(=O)C/C1=C\\c1ccc([N+](=O)[O-])cc1", "inhibition [%]": -46}
{"data": "Study 2", "target": "Interferon regulatory factor 5, full length, phosphomimetic (IRF5, Homo sapiens, UniProt Q13568-2, residues 1-514, K96S/S451D/S453D/S456D/S462D)", "technique": "protein-binding microarray", "form": "double-stranded DNA, one strand shown", "medium": "in vitro", "concentration": "250 nM", "notes": "60-bp whole probe", "together with": "salmon DNA 0.4 mg/ml", "relative to": "random background probes", "reading": "higher = stronger binding", "all sequences stand within": "GCCTAGCAC … GTCTTGATTCGCTTGACGCTGCTG"}
{"Sequence": "GACCGTCTCCTTATCCTGACGTGCTAG", "log fluorescence": "-0.293 z-score"}
{"Sequence": "GACCATATCGGGACTGGAGACGTGCTA", "log fluorescence": "0.425 z-score"}
{"Sequence": "TTAAGACTGGACACTGGGTTAGTGCTA", "log fluorescence": "-0.7 z-score"}
{"Sequence": "TCAGCTTTCCCGTCCAGACTGTGCTAG", "log fluorescence": "0.413 z-score"}
{"Sequence": "TTAGATTTCGGTTCCGGTTAGTGCTAG", "log fluorescence": "8.76 z-score"}
{"Sequence": "CTTTATGTACTCTCTCCATGTGTGCTA", "log fluorescence": "0.32 z-score"}
{"Sequence": "TCATGCTTCAGGTTTACCACTGTGCTA", "log fluorescence": "0.196 z-score"}
{"Sequence": "GACGGTCTCGGACTGGGGACGTGCTAG", "log fluorescence": "-0.355 z-score"}
{"data": "Study 3", "cell line": "HEK-293T", "observed": "pseudovirus infection", "technique": "FDA-approved drug library screen", "organism": "VSV pseudotyped with SARS-CoV-2 spike", "concentration": "10 µM", "time": "16 h", "relative to": "vehicle-treated"}
{"Compound": "CN1CCN(CCCN2c3ccccc3Sc3ccc(C(F)(F)F)cc32)CC1", "GFP-positive cells": "8.63%"}
{"Compound": "CC1CCC(C(C)C)C(O)C1 (racemic)", "GFP-positive cells": "84.2%"}
{"Compound": "O=C1Cc2cc(CCN3CCN(c4nsc5ccccc45)CC3)c(Cl)cc2N1", "GFP-positive cells": "91.3%"}
{"Compound": "CC1(C)S[C@@H]2[C@H](NC(=O)C(C(=O)O)c3ccccc3)C(=O)N2[C@H]1C(=O)O (some centres unmarked)", "GFP-positive cells": "67.4%"}
{"data": "Study 4", "target": "Histone acetyltransferase KAT6A, winged helix 1, GST fusion (KAT6A, Homo sapiens, UniProt Q92794, residues 1-85)", "technique": "protein binding microarray", "form": "double-stranded DNA, one strand shown", "medium": "in vitro", "concentration": "not given", "notes": "8-mer, flanks averaged, mean of 2 arrays, mostly near background", "relative to": "not given", "reading": "higher = stronger binding", "Construct (chain)": "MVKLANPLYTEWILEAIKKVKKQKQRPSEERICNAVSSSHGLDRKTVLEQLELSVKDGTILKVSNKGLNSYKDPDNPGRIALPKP"}
{"Sequence": "ACGTCTAA", "E-score": -0.0176}
{"Sequence": "TATGCTCA", "E-score": -0.172}
{"Sequence": "CAGCGTAA", "E-score": 0.058}
{"Sequence": "AACGACCA", "E-score": -0.256}
{"Sequence": "CACTATCC", "E-score": -0.0793}
{"Sequence": "AGTTTTAC", "E-score": -0.0452}
{"Sequence": "ACCTCGGA", "E-score": -0.109}
{"Sequence": "ATTAAACA", "E-score": -0.155}
{"data": "Study 5", "target": "Replicase polyprotein 1ab, polymerase (rep, Severe acute respiratory syndrome coronavirus 2, UniProt P0DTD1)", "observed": "enzyme activity", "action": "inhibitor", "concentration": "20 µM"}
{"SMILES": "CCCCn1c(=O)c2[nH]c(C34CC5CC(CC3C5)C4)nc2n(CCCO)c1=O", "inhibition": "-7.81%"}
{"SMILES": "C[C@@]1(c2cc(-c3cncnc3)c(F)cc2F)CCSC(N)=N1", "inhibition": "4.37%"}
{"SMILES": "Oc1c(I)cc(I)c2cccnc12", "inhibition": "23.7%"}
{"SMILES": "COc1cc2c(Oc3ccc4[nH]c(C)cc4c3F)ccnc2cc1OCC1(N)CC1", "inhibition": "-6.92%"}
{"SMILES": "CCN(CC)CCNc1ccc(CO)c2sc3ccccc3c(=O)c12", "inhibition": "2.76%"}
{"SMILES": "O=C(c1ccc(F)cc1)C1CCN(CCCCc2ccccc2)CC1", "inhibition": "-9.03%"}
{"SMILES": "Cc1cc(Nc2nc(N[C@@H](C)c3ncc(F)cn3)ncc2Cl)[nH]n1", "inhibition": "-3.29%"}
{"SMILES": "COc1cc2c(Oc3ccc(NC(=O)C4(C(=O)Nc5ccc(F)cc5)CC4)cc3F)ccnc2cc1OCCCN1CCOCC1", "inhibition": "-1.2%"}
{"SMILES": "O=S(=O)(c1ccccc1)N(CC(F)(F)F)c1ccc(C(O)(C(F)(F)F)C(F)(F)F)cc1", "inhibition": "0.46%"}
{"SMILES": "COc1cc(C[C@H]2C(=O)OC[C@@H]2Cc2ccc(OC)c(OC)c2)ccc1O", "inhibition": "-1.51%"}
{"SMILES": "O=C1N=C(NCc2cccs2)S/C1=C\\c1ccc2ncccc2c1", "inhibition": "-0.11%"}
{"SMILES": "O=C(N/N=C/c1ccc([N+](=O)[O-])o1)c1ccc(O)cc1", "inhibition": "2.03%"}
{"SMILES": "Cn1c([N+](=O)[O-])cnc1COC(N)=O", "inhibition": "27.7%"}
{"SMILES": "O=C(O)CNC(=O)c1ccccc1I", "inhibition": "3.24%"}
{"SMILES": "C=CC(=O)N1CCN(C(=O)CNc2cc(I)c(Cl)cc2O)CC1", "inhibition": "0.38%"}
{"SMILES": "O=C(CSc1nc2c(c(=O)n1-c1ccccc1)SCC2)Nc1ccc(-c2ccccc2)cn1", "inhibition": "2.03%"}
{"SMILES": "O=C(Nc1ccc(-c2ccnc(Nc3ccc(N4CCOCC4)cc3)n2)cc1)C1CCCN1 (centres unmarked)", "inhibition": "1.47%"}
{"SMILES": "CC[N+](C)(CC)CCC[n+]1c(-c2ccccc2)c2cc(N)ccc2c2ccc(N)cc21", "inhibition": "102%"}
{"SMILES": "O=C(O)CSc1nnc(Br)n1-c1ccc(C2CC2)c2ccccc12", "inhibition": "4.07%"}
{"SMILES": "O=C(NCNC(=O)NC1C(=O)NC(=O)N1CO)NC1C(=O)NC(=O)N1CO (centres unmarked)", "inhibition": "1.21%"}
{"SMILES": "CCn1cnc2c(Nc3cccc(Cl)c3)nc(N[C@@H]3CCCC[C@@H]3N)nc21", "inhibition": "3.94%"}
{"SMILES": "CC(C)NCC(O)COc1ccccc1-n1cccc1 (centres unmarked)", "inhibition": "-2.56%"}
{"SMILES": "c1ccc2sc(N3CCN(Cc4ccc5c(c4)OCO5)CC3)nc2c1", "inhibition": "11.7%"}
{"data": "Study 6", "target": "RING finger protein unkempt homolog, zinc fingers 1-6, GST-SBP tag (UNK, Homo sapiens, UniProt Q9C0B0, residues 30-357)", "technique": "RNA Bind-n-Seq", "form": "RNA", "medium": "in vitro", "concentration": "not given", "notes": "RNA with constant flanks, human-mouse chimeric sites, ends assumed", "relative to": "input RNA pool", "reading": "higher = stronger binding", "all sequences stand within": "GGGAGUUCUACAGUCCGACGAUC … CAACAGAGGAUUGAGCAUCA", "UniProt Q9C0B0, sequence (30-357, looked up)": "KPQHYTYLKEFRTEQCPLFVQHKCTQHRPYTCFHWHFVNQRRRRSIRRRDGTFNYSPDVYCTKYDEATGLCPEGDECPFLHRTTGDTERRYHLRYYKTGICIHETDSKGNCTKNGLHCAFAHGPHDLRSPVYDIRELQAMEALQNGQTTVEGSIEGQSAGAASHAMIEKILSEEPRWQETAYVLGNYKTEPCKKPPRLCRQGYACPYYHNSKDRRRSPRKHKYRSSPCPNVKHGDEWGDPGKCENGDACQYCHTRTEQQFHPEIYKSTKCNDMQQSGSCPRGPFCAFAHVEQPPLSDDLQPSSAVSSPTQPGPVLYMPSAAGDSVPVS"}
{"Sequence": "AUCAAAUACUUUGGGGACAUCAUUAGUGUGGGACAGAGACUGUUGCAAGGAGCUCGGAUCUUAGGGAUUCCAGUUAUUGUAACAGAACAAUACCCCAAAGGACUUGGGAGCACGGUUCAA", "bound/input enrichment [ratio]": 0.208}
{"Sequence": "CACGUGUCUGCAGUACUUGAUGUGGACUACUCUCCCACUGGGAAGGAAUUUGUGUCUGCCAGCUUUGAUAAGUCUAUUCGAAUCUUUCCUGUGGACAAAAGUCGAAGCAGGGAAGUGUAU", "bound/input enrichment [ratio]": 0.296}
{"Sequence": "CAGCCUCAGAGCCCAGACUUCCUGGACAUUACCAACCCCAAAGCCGUAUUAGAAAAUGCAUUGAGAAACUUCGCCUGUCUGACGACUGGAGAUGUGAUUGCUAUCAACUACAAUGAGAAG", "bound/input enrichment [ratio]": 0.374}
{"Sequence": "AGUUCCAAACCACCAUCAGAAAUGAAGAUGAGAUUACCCAGACGAGCCCAAAACCGCGCGCUACAGAAAAGUAAACUUAACCUUGCAGAGUUCCUUAAUGAAGAUACAAGUUAAGAGAGC", "bound/input enrichment [ratio]": 0.186}
{"Sequence": "AUCAAAUACUUUGGGGACAUCAUUAGUGUGGGACAGAGACUGUUGCAAGGAGCUCGGAUCUUAGGGAUUCCAGUUAUCAUAACGGAACAAUACCCCAAAGGUCUUGGGAGCACGGUUCAA", "bound/input enrichment [ratio]": 0.179}
{"Sequence": "CCCUCCCCGGGCCACCCACCCCUCCCGGCUCCCCGCCGAGAUCCAGGUUUCUUCUUAUUUCAUAGCCAAUAAGAAAAAUGUUCUACGCACAUUUUGUCCUCAGUAAACGAGGGCCUCUGG", "bound/input enrichment [ratio]": 0.661}
{"Sequence": "GGAUCUUUGGGACUGUUUUGCUUGAUUGGUCAUUGAUAGCUUAACAAACAUGGAGAUAAGAUUAGAAAUCUUGACAUCAACAGGUAUUAAGCAGAAAAAACCAUGGCCACGUGUCUCCUG", "bound/input enrichment [ratio]": 0.138}
